Measured values from different studies.
Protocols differ between the studies behind these lines. ± marks the error that the study gave.

| Compound | assay | test system | conditions | scale | quantity | value |
| --- | --- | --- | --- | --- | --- | --- |
| COc1ccc(C2=Nn3c(NN=C4C(=O)N(Cc5ccccc5)c5ccc(Cl)cc54)nnc3SC2)cc1 | – | chick embryo, chorioallantoic membrane | 40 µM | – | toxicity | toxic |
| C1=C(c2cc3c(Nc4ccc5scnc5c4)ncnc3s2)CCNC1 | – | BALB/c mouse, plasma | oral, 10 mg/kg, 30 min | – | concentration | 305 ng/mL |
| CCCCCCCCCCCCC(=O)O.O=C1CCCC2C3CCCN4CCCC(CN12)C34 (stereo not drawn) | electrical conductivity | water | 313.15 K | – | entropic term −TΔS of aggregation | -8.32 kcal/mol |
| COc1cc(NC(=O)C(=O)c2c(C)n(Cc3ccc(Cl)cc3)c3ccc(C)cc23)ccn1 | – | cynomolgus monkey, female, plasma | oral, 10 mg/kg, range of individual values | – | oral bioavailability | 14 to 31% |
| CN(C)C(CNC(=O)Nc1cc(C(F)(F)F)ccc1N1CCOCC1)c1ccncc1 (stereo not drawn) | – | mouse, serum | intraperitoneal, 360 mg/kg single dose | – | serum ALT | 721 U/L |
| CC(C)C[C@H](NC(=O)[C@H](CCCCN)NC(=O)[C@H](CCC(=O)O)NC(=O)[C@H](C)NC(=O)[C@@H](NC(=O)[C@H](CCCCN)NC(=O)[C@H](CC(=O)O)NC(=O)[C@H](Cc1ccc(O)cc1)NC(=O)[C@H](Cc1ccccc1)NC(=O)[C@H](C)NC(=O)[C@H](CCCCN)NC(=O)[C@H](CC(C)C)NC(=O)[C@H](Cc1c[nH]c2ccccc12)NC(=O)[C@@H](N)CC(=O)O)C(C)C)C(=O)N[C@@H](CCCCN)C(=O)N[C@@H](CCC(=O)O)C(=O)N[C@@H](C)C(=O)N[C@@H](Cc1ccccc1)C(=O)N1CCC[C@H]1C(=O)N[C@@H](CC(=O)O)C(=O)N[C@@H](Cc1c[nH]c2ccccc12)C(=O)N[C@@H](C)C(=O)N[C@@H](CCCCN)C(=O)N[C@@H](C)C(=O)N[C@@H](C)C(=O)N[C@@H](Cc1ccc(O)cc1)C(=O)N[C@@H](CC(=O)O)C(=O)N[C@@H](CCCCN)C(=O)N[C@@H](C)C(=O)N[C@@H](C)C(=O)N[C@@H](CCC(=O)O)C(=O)N[C@@H](CCCCN)C(=O)N[C@@H](C)C(=O)N[C@@H](CCCCN)C(=O)N[C@@H](CCC(=O)O)C(=O)N[C@@H](C)C(=O)N[C@@H](C)C(=O)O | – | cynomolgus monkey male, plasma | intravenous infusion, 25 mg/kg every other day, day 27 | – | Tmax | 0 h |
| O=C1Cc2cc(CCN3CCN(C4=NS(=O)(=O)c5ccccc54)CC3)c(Cl)cc2N1 | – | human liver mitochondrial preparation | 1 µM, 30 min, 0.5 mg/mL protein | – | percent metabolized | 29.5% |
| CCN(CC)c1ccc2c(-c3ccccc3C(=O)OCCC[18F])c3ccc(=[N+](CC)CC)cc-3oc2c1 | – | rat | dose not given, 60 min post injection | reference: heart over blood | heart to blood ratio | 26.4 |
| CN[C@](C)(C[18F])C(=O)O | – | mouse, bone | 15 min, tumour-bearing | – | tracer uptake | 3.3 %ID/g |
| CC[C@H](C)[C@@H]1NC(=O)[C@H](CCCCN)NC(=O)[C@H](CCCCN)NC(=O)[C@H](Cc2ccc(O)cc2)NC(=O)[C@H](CC(C)C)NC(=O)[C@@H]2CCCN2C(=O)[C@H](C)NC(=O)CNC(=O)CNC(=O)[C@H](CO)NC(=O)CNC(=O)CNC(=O)[C@H](CO)NC(=O)[C@H](CCC(=O)O)NC(=O)[C@H](CC(C)C)NC(=O)[C@H](CC(C)C)NC(=O)[C@H](CCCCN)NC(=O)[C@H](CCCCN)NC(=O)[C@H](C(C)C)NC(=O)[C@H]([C@@H](C)CC)NC(=O)[C@H](CCCCN)NC(=O)[C@H](CCCCN)NC(=O)[C@H](Cc2ccc(O)cc2)NC(=O)[C@H](CC(C)C)NC(=O)[C@@H]2CCCN2C(=O)CNC(=O)CNC(=O)[C@@H](NC(=O)CN)CSSC[C@@H](C(N)=O)NC(=O)[C@H](CC(C)C)NC(=O)[C@H](CCCCN)NC(=O)[C@H](CCCCN)NC(=O)[C@H](C(C)C)NC1=O | – | 25% human serum | 50 µM, 24 h | reference: 0 h control | remaining intact peptide | 17.4 ± 1% |
| CCOP(=O)(OCC)OCCCCOC(=O)CC1=C(C)/C(=C/c2ccc([S+](C)[O-])cc2)c2ccc(F)cc21 (stereo not drawn) | – | rat, muscle | topical, 50 mg/kg, PSH vehicle | – | Tmax | 1 h |
| [2H]C([2H])([2H])C([2H])([2H])C([2H])([2H])OC(C(=O)OC1CCNCC1)(c1ccccc1)c1ccccc1 | – | healthy Japanese male | oral, 8 to 18 mg once daily, 16 days | – | adverse event incidence | 25.7% |
| CC[C@H](C)[C@H](NC(=O)[C@H](CC(=O)O)NC(=O)[C@H](CO)NC(=O)[C@H](CCC(N)=O)NC(=O)[C@H](C)NC(=O)[C@H](CC(=O)O)NC(=O)[C@H](CCC(=O)O)NC(=O)[C@H](Cc1c[nH]cn1)NC(=O)[C@H](Cc1ccc(O)cc1)NC(=O)[C@H](C)NC(=O)[C@H](CC(=O)O)NC(=O)[C@H](CCC(=O)O)NC(=O)[C@H](Cc1c[nH]cn1)NC(=O)[C@H](Cc1ccc(O)cc1)NC(=O)[C@H](C)NC(=O)[C@H](CC(=O)O)NC(=O)[C@H](CCC(=O)O)NC(=O)[C@H](Cc1c[nH]cn1)NC(=O)[C@H](Cc1ccc(O)cc1)NC(=O)[C@H](C)NC(=O)[C@H](CC(=O)O)NC(=O)[C@H](CCC(=O)O)NC(=O)[C@H](Cc1c[nH]cn1)NC(=O)[C@H](Cc1ccc(O)cc1)NC(=O)[C@H](C)NC(=O)[C@H](CC(=O)O)NC(=O)[C@H](CCC(=O)O)NC(=O)[C@H](Cc1c[nH]cn1)NC(=O)[C@@H](N)Cc1ccc(O)cc1)C(=O)N[C@H](C(=O)N[C@@H](C)C(=O)N[C@@H](Cc1c[nH]cn1)C(=O)N[C@@H](CC(C)C)C(=O)N[C@@H](CC(C)C)C(=O)O)C(C)C | – | normal mouse, blood | dose not given | – | LY share of white cells | 85.7 ± 3% |
| O=C([O][Ti+2][O]C(=O)c1ccc([P+]([Au-][Cl])(c2ccccc2)c2ccccc2)cc1)c1ccc([P+]([Au-][Cl])(c2ccccc2)c2ccccc2)cc1.c1cc[cH-]c1.c1cc[cH-]c1 | – | C57BL/6 mice, female | subcutaneous, once daily | – | lethal dose | 15 mg/kg/day |
| CC(C)C[C@H](NC(=O)[C@H](Cc1ccccc1)NC(=O)CNC(=O)C/C=C(\F)[C@@H](N)Cc1ccc(O)cc1)C(=O)O | – | BALB/c mice, brain | intravenous, 50 mg/kg | – | time to undetectable level | ≤ 20 min |
| NCCCC[C@H](NC(=O)[C@H](Cc1ccccc1)NC(=O)[C@H](CCCCN)NC(=O)[C@H](Cc1ccccc1)NC(=O)[C@H](CCC(=O)O)NC(=O)[C@H](Cc1ccccc1)NC(=O)[C@H](CCC(=O)O)NC(=O)[C@@H](N)Cc1ccccc1)C(=O)O | RP-HPLC | cell-free hydrogel in medium | day 6, 10% FBS | reference: day 0 | intact peptide remaining | 12.6 ± 0.2% |
| CC[C@H](C)C(=O)N1CCC(NC(=O)Nc2ccc(OC(F)(F)F)c(F)c2)CC1 | – | healthy volunteers | oral, 2 mg single dose, 14 (unit not given) | – | subjects with any TEAE | 66.7% |
| N=C(N)NCc1ccc(C(=O)NCCCC[C@H](NC(=O)N[C@@H](CCC(=O)O)C(=O)O)C(=O)O)cc1[211At] | – | SCID mouse, PC-3 xenografts, lungs | 2 h | – | tissue uptake | 1.99 ± 0.23 %ID/g |
| CSCC[C@H](NC(=O)CNC(=O)[C@H](CC(=O)O)NC(=O)[C@@H](NC(=O)[C@@H](NC(=O)[C@@H](NC(=O)CNC(=O)[C@H](CCC(N)=O)NC(=O)[C@H](CCSC)NC(=O)[C@H](CC(=O)O)NC(=O)[C@H](C)NC(=O)[C@H](C)NC(=O)[C@@H](NC(=O)[C@H](CO)NC(=O)[C@@H](N)CC(C)C)[C@@H](C)O)C(C)C)C(C)C)[C@@H](C)O)C(=O)N[C@@H](C)C(=O)N[C@@H](CO)C(=O)NCC(=O)N[C@@H](CC(C)C)C(=O)N[C@@H](CC(=O)O)C(=O)N[C@@H](CCCCN)C(=O)N[C@@H](CC(=O)O)C(=O)N[C@@H](Cc1ccc(O)cc1)C(=O)N[C@@H](CC(C)C)C(=O)N[C@@H](CCCCN)C(=O)N1CCC[C@H]1C(=O)N[C@@H](CC(=O)O)C(=O)N[C@@H](CC(=O)O)C(=O)O | – | human, serum | intravenous, 2.5 mg/kg, patients, infusion | – | clearance | 21.6 mL/min/kg |
| NC(=O)[C@@H](CCCCNC(=O)CNC(=O)CCC(=O)NCCc1c[nH]cn1)NC(=O)[C@@H](Cc1ccc(O)cc1)NC(=O)[C@@H](CCCCNC(=O)CNC(=O)CCC(=O)NCCc1c[nH]cn1)NC(=O)Cc1ccc(CN2CCN(CC(=O)O)CCN(CC(=O)O)CC2)cc1 [fluorine-18 labelled] | – | tumour-bearing nude mice | intravenous, 3 h, TF2 pretargeting | reference: tumour over kidney | tissue ratio | 12 ± 3 |
| CC(=O)[O-].CN1CCCN2CCN(C)CCCN(CC1)CC2.F[P-](F)(F)(F)(F)F.[Co+2] | cyclic voltammetry, measured: second Co2+/Co3+ couple | acetonitrile | – | – | peak separation | 208 mV |

For quick reference, copied from above:
| Compound | assay | test system | conditions | scale | quantity | value |
| --- | --- | --- | --- | --- | --- | --- |
| CC[C@H](C)[C@@H]1NC(=O)[C@H](CCCCN)NC(=O)[C@H](CCCCN)NC(=O)[C@H](Cc2ccc(O)cc2)NC(=O)[C@H](CC(C)C)NC(=O)[C@@H]2CCCN2C(=O)[C@H](C)NC(=O)CNC(=O)CNC(=O)[C@H](CO)NC(=O)CNC(=O)CNC(=O)[C@H](CO)NC(=O)[C@H](CCC(=O)O)NC(=O)[C@H](CC(C)C)NC(=O)[C@H](CC(C)C)NC(=O)[C@H](CCCCN)NC(=O)[C@H](CCCCN)NC(=O)[C@H](C(C)C)NC(=O)[C@H]([C@@H](C)CC)NC(=O)[C@H](CCCCN)NC(=O)[C@H](CCCCN)NC(=O)[C@H](Cc2ccc(O)cc2)NC(=O)[C@H](CC(C)C)NC(=O)[C@@H]2CCCN2C(=O)CNC(=O)CNC(=O)[C@@H](NC(=O)CN)CSSC[C@@H](C(N)=O)NC(=O)[C@H](CC(C)C)NC(=O)[C@H](CCCCN)NC(=O)[C@H](CCCCN)NC(=O)[C@H](C(C)C)NC1=O | – | 25% human serum | 50 µM, 24 h | reference: 0 h control | remaining intact peptide | 17.4 ± 1% |
